Published values gathered from unrelated publications.
Compare with care: the assays were run in different laboratories. Values joined by “and” are separate records of one study, mostly repeats; a detail may differ. Numbers after ± are the reported error.
ACHE: Acetylcholinesterase (ACHE, Homo sapiens, UniProt P22303)
UniProt P22303, sequence (whole entry, looked up): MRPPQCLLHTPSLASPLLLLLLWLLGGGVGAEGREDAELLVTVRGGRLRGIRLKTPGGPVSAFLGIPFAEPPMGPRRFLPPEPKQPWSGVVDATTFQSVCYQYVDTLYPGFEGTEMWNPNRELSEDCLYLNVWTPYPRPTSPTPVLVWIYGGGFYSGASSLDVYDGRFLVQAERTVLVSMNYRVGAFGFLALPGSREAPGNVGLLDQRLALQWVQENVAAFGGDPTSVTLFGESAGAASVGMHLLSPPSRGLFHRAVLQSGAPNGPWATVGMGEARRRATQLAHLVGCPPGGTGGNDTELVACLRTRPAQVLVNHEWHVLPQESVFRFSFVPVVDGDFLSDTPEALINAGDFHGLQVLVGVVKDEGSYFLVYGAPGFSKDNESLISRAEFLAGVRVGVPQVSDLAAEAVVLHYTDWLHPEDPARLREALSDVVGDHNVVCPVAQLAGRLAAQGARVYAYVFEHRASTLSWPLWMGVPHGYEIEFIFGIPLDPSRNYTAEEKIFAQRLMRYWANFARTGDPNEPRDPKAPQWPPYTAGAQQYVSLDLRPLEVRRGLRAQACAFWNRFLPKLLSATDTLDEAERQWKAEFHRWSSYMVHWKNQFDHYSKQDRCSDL
PFF0160c E182D: Dihydroorotate dehydrogenase (quinone), mitochondrial (PFF0160c, Plasmodium falciparum, UniProt Q08210, E182D)
UniProt P27361, sequence (whole entry, looked up): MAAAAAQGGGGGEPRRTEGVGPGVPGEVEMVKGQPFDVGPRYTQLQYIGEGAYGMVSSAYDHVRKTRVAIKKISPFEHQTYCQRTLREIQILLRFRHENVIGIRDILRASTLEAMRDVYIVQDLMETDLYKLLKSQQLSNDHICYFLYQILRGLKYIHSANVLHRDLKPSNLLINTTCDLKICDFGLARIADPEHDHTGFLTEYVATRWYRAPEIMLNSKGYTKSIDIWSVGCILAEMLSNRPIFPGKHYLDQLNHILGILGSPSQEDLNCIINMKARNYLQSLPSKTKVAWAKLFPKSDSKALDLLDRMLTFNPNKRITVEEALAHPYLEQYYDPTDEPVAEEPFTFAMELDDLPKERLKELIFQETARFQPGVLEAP
UniProt Q9Y5Y3, sequence (whole entry, looked up): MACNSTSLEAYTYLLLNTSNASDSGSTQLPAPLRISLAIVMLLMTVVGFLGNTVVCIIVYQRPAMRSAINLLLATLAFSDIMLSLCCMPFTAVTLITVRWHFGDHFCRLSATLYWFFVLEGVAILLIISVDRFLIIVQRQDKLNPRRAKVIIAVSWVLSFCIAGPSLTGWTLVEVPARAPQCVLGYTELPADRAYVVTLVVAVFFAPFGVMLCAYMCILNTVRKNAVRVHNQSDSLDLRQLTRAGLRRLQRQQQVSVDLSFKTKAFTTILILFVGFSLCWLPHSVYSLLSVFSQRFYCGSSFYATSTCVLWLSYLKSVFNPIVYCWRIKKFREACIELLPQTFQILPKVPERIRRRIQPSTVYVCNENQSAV
UniProt P0A7E5, sequence (whole entry, unmodified, looked up): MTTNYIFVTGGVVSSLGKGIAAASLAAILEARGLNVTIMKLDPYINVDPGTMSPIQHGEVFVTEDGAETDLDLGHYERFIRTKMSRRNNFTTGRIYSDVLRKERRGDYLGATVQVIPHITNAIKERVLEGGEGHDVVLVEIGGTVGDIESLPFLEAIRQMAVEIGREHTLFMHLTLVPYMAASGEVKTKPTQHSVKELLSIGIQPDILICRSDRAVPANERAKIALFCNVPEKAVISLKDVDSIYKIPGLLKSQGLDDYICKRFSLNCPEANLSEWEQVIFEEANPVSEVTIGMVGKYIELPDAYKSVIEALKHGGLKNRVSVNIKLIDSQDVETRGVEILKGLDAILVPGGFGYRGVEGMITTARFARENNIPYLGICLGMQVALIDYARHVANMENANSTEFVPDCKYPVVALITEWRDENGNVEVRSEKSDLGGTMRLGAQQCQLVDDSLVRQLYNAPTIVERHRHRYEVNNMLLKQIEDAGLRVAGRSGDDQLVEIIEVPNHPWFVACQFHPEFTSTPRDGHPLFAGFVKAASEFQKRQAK
UniProt Q15758, sequence (whole entry, looked up): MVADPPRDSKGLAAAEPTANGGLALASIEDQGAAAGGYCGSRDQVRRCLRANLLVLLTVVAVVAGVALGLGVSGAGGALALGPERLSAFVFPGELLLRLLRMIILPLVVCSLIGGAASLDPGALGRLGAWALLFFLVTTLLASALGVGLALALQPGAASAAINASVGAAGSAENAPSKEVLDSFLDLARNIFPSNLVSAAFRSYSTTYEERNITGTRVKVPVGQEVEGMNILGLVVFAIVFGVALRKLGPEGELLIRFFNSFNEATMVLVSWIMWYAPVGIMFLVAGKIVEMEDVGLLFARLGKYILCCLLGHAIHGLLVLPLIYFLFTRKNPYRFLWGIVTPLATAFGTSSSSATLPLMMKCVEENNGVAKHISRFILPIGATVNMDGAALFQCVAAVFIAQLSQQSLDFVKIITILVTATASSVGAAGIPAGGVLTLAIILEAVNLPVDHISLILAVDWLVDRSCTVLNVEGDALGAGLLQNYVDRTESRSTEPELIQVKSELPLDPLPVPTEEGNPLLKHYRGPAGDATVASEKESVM
UniProt Q62666, sequence (whole entry, looked up): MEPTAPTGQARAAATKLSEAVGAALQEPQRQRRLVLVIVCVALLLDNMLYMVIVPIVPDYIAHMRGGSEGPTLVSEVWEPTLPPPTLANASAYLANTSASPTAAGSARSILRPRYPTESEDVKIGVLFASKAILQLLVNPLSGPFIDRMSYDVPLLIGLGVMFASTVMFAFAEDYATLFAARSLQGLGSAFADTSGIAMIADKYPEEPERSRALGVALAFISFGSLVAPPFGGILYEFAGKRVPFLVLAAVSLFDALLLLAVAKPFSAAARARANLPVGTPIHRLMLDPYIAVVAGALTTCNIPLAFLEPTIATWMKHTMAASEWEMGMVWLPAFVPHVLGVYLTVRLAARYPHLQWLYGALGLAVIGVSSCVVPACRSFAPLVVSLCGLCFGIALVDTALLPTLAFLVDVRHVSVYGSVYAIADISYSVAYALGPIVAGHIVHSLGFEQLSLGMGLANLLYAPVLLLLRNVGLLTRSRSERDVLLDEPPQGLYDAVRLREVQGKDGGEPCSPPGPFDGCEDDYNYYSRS
UniProt P36544, sequence (whole entry, looked up): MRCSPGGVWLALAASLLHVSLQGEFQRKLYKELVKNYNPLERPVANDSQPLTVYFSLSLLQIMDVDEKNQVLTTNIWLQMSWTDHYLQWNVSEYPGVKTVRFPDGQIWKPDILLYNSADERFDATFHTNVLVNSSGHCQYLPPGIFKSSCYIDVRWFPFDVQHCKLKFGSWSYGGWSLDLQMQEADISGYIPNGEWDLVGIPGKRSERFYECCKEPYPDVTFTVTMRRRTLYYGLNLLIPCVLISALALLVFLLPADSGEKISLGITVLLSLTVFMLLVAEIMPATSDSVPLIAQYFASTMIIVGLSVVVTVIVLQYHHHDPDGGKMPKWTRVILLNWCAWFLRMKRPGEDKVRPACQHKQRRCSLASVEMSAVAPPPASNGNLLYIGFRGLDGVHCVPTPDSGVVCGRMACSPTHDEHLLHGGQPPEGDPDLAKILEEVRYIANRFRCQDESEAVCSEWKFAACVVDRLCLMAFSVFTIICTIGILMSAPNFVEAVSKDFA
UniProt P35869, sequence (whole entry, looked up): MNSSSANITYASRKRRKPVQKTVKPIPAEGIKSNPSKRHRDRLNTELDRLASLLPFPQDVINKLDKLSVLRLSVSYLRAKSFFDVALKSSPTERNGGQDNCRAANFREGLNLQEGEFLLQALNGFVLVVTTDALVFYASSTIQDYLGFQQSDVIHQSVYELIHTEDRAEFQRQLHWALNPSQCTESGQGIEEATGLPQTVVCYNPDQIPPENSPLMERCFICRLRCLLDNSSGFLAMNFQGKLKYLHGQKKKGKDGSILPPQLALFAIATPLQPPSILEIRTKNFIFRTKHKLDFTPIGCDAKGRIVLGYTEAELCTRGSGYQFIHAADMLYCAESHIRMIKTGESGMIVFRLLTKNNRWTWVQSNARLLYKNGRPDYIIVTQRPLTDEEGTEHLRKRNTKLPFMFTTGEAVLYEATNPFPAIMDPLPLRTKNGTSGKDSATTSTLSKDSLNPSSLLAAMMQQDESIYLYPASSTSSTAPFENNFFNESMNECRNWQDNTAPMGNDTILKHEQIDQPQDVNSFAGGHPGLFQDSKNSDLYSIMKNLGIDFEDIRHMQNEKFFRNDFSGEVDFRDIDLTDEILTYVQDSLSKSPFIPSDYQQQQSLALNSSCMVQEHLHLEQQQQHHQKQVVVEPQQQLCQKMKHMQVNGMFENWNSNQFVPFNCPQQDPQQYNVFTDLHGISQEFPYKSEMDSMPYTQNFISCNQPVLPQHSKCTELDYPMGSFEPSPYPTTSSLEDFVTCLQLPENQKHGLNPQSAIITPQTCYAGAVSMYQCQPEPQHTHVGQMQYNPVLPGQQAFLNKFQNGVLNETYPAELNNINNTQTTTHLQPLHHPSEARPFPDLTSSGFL
UniProt P07711, sequence (whole entry, looked up): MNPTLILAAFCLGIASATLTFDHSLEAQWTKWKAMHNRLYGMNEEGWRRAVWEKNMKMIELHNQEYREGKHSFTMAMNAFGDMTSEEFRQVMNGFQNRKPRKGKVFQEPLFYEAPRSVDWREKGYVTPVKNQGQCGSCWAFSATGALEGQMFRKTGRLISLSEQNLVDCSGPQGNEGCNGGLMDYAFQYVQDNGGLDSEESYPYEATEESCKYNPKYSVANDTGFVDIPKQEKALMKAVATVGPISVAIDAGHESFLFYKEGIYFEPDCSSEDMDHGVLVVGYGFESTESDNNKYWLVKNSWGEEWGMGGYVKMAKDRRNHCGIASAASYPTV
UniProt O95881, sequence (whole entry, looked up): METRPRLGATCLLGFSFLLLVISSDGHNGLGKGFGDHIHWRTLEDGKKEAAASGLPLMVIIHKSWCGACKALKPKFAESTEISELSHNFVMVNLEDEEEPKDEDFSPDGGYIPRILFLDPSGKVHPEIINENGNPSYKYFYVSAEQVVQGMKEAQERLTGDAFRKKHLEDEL

Compound	target	test	system	setting	how to read	measurement	value
O=C(O)COP(=O)(O)O	TPI1 (Saccharomyces cerevisiae, UniProt P00942, Y208T)	enzyme activity, competitive inhibitor, GPDH/NADH-coupled		pH 7.5, 25 °C, ionic strength 0.1 NaCl, added: glyceraldehyde 3-phosphate substrate	relative to: mutant over wild type	Ki ratio	8.3
Oc1ccc(-c2cccc(Cl)c2)cc1Cl	AHR (Homo sapiens, UniProt P35869)	reporter gene, antagonist	AZ-AHR cells	24 h, added: TCDD 4.5 nM		IC25	0.01 mM
O=C(Nc1cccnn1)N1CCC(=Cc2cccc(Oc3ccc(C(F)(F)F)cn3)c2)CC1	GABA transporter, rat	binding		10 µM, added: [3H]GABA		inhibition	10%
CC12CCC(CC1)C(C)(C)O2	1,8-cineole 2-endo-monooxygenase (cinA, Citrobacter braakii, UniProt Q8VQF6)	NADPH consumption, substrate		200 µM, pH 7.8, room temperature, wild-type variant, 50 mM Tris, added: Fpr and Cdx		kcat	4.22 ± 0.09 s⁻¹
CN(C)[C@@H](CCOc1cccc2ccccc12)c1ccccc1	ACHE		biochemical	concentration not given		activity class	inactive
Cl.Cn1c(=O)n(CCCCN2CCC3(CC2)OCc2ccccc23)c2ccccc21	Slc6a3 (Rattus norvegicus, UniProt P23977)	dopamine uptake, inhibitor	rat striatal synaptosomes	added: [3H]dopamine		Hill slope	-1.23
Oc1ccc2ccc3cccc4ccc1c2c34	Aryl hydrocarbon receptor (Danio rerio, UniProt Q9YGV3)	reporter gene, agonist, luciferase reporter	ZF-4	1.524 µM	relative to: vehicle control	fold change	1.02
Cc1nc2c(c(O)c1Cl)-c1ccc(Oc3cccc(C(F)(F)F)c3)cc1C2=O	PFF0160c E182D	enzyme activity, DCIP colorimetric			relative to: E182D mutant over wild type	IC50 ratio	2.1
COc1cc(N)c(Cl)cc1C(=O)NC1CN2CCC1CC2 (centres unmarked)	Probable G-protein coupled receptor 45 (GPR45, Homo sapiens, UniProt Q9Y5Y3)	β-arrestin recruitment, TANGO luminescence, item: GPR45		concentration not given	relative to: basal luminescence	log2 fold change	-0.347
O=C(c1ccc(Cl)cc1)N1CCN2C(=O)N(OC(=O)N3CCOc4ccccc43)C(=O)C2C1 (centres unmarked)	SLC1A5 (Homo sapiens, UniProt Q15758)	MS-based ABPP	SW-620 conditioned medium	10 µM, 1 h, 37 °C	relative to: compound over DMSO, lower = more inhibition	mean protein ratio	1.26
Cc1nc(Nc2ccc(C)c(Cl)c2)c2c(C)noc2n1	PFF0160c E182D	enzyme activity, DCIP colorimetric			relative to: E182D mutant over wild type	IC50 ratio	9.8
C[N+](C)(C)[C@@H](Cc1c[nH]c(=S)[nH]1)C(=O)[O-]	Ergothioneine transport permease/ergothioneine binding protein EgtU, substrate-binding domain (egtU, Helicobacter pylori, UniProt B5Z7I3)	ITC		concentration not given, 30 °C, substrate-binding domain		binding stoichiometry	0.773 ± 0.095
C[C@H]1CN(c2n[nH]c3nc(N[C@H]4CC[C@H](NS(=O)(=O)CCC(F)(F)F)CC4)ncc23)CCO1	CLK2 (Homo sapiens, UniProt P49760)	inhibitor, Kinobeads competition profiling		20 µM	relative to: vehicle	relative abundance	1.14
Nc1ncc(-c2nc(N3CCOCC3)nc(N3CCOCC3)n2)c(C(F)F)n1	KIT (Homo sapiens, UniProt P10721, D816H)	KINOMEscan		10 µM		remaining binding	89%
COC(=O)[C@@]1(O)C[C@H]2O[C@]1(C)n1c3ccccc3c3c4c(c5c6ccccc6n2c5c31)C(=O)NC4	MAPK3 (Homo sapiens, UniProt P27361)	ADP-Glo		24.6 µM, added: MBP substrate		kinase activity	101% and 125% and 99.8%
COc1ccc2c3c([nH]c2c1)CCN(C)CC3.O=C(O)/C=C/C(=O)O	CHRNA7 (Homo sapiens, UniProt P36544)	ion current, inhibitor, two-electrode voltage clamp	Xenopus laevis oocytes	added: 100 µM acetylcholine		Hill coefficient	1.9 ± 0.1
C#CCCCCNC(=O)CI	Thioredoxin domain-containing protein 12 (TXNDC12, Homo sapiens, UniProt O95881)	mass spectrometry profiling	Ramos cell lysate	100 µM over 10 µM, UniProt O95881	relative to: high over low concentration	reactivity ratio	1.36
Cc1cc(Nc2ccc(C(C)(C)C)cc2)c2[nH]ncc2n1.Cl	PFF0160c E182D	enzyme activity, DCIP colorimetric			relative to: E182D mutant over wild type	IC50 ratio	2.5
CN(CC(=O)O)C(=N)NP(=O)(O)O	CKMT1A (Homo sapiens, UniProt P12532, E265Q)	substrate, Kinase-Glo luminescence		pH 7.0, reverse reaction, E227Q mutant, added: second substrate in excess		kcat	0.0005 ± 0.0002 s⁻¹
Nc1ncnc2c1ncn2[C]1O[C@H](CSCC[C@H](N)C(=O)O)[C](O)[C]1O	Procathepsin L (CTSL, Homo sapiens, UniProt P07711)	enzyme activity, inhibitor		100 µM, added: substrate Z-FR-AFC		remaining activity	117%
OC1Cc2ccccc2CC1N1CCC2(C=Cc3cc(F)ccc32)CC1 (racemic)	Vesicular acetylcholine transporter (Rattus norvegicus, UniProt Q62666)		rat liver (sigma2)		relative to: Ki sigma2 over Ki VAChT	selectivity ratio	14
Nc1ccn([C@@H]2O[C@H](COP(=O)(O)OP(=O)(O)OP(=O)(O)O)[C@@H](O)[C@H]2O)c(=O)n1	pyrG (Escherichia coli, UniProt P0A7E5, C268A)	enzyme activity		added: UTP 0.05 mM		Hill coefficient	1.8 ± 0.5
NC(CO)COP(=O)(O)O (racemic)	Cj1438c (Campylobacter jejuni, UniProt Q0P8H6)	substrate inhibition, PK/LDH coupled		pH 8.0, 25 °C, racemate, added: D-glucuronate 10 mM, ATP 3.0 mM		Ki	19 ± 2 mM
CC(C)(C)CC(C)(C)c1ccc(O)c(Cc2ccc(Cl)cc2Cl)c1	ACHE		biochemical	concentration not given		activity class	inactive
CCOC(=O)CC(SP(=O)(OC)OC)C(=O)OCC (centres unmarked)	uncharacterized protein (Anopheles coluzzii, UniProt A0A6E8VQK1)	enzyme activity, inhibitor	Sf9 cell homogenate	1.147 µM, 0.1667 h, added: α-naphthyl acetate substrate	relative to: no inhibitor	remaining activity	8.64%
CC[C@H](C)[C@H](NC(=O)CNC(=O)[C@@H](N)CCCCN)C(=O)N[C@@H](CC(C)C)C(=O)N[C@@H](CCCCN)C(=O)N[C@@H](CCCNC(=N)N)C(=O)N[C@@H](CCC(=O)O)C(=O)N[C@@H](CCCCN)C(=O)N[C@@H](CCCNC(=N)N)C(=O)N[C@@H](CC(C)C)C(=O)N[C@@H](CCCNC(=N)N)C(=O)N[C@@H](CCCNC(=N)N)C(=O)N[C@@H](CCCCN)C(=O)N[C@@H](CC(N)=O)C(=O)N[C@H](C(=O)N[C@@H](Cc1c[nH]cn1)C(=O)N[C@@H](Cc1c[nH]c2ccccc12)C(=O)N1CCC[C@H]1C(=O)N[C@@H](CCC(=O)O)C(=O)N[C@@H](CCC(=O)O)C(=O)NCC(=O)N[C@@H](CCCCN)C(=O)N[C@@H](CC(C)C)C(=O)N[C@@H](CCCNC(=N)N)C(=O)N[C@@H](CCC(=O)O)C(=O)N[C@@H](Cc1ccc(O)cc1)C(=O)N[C@@H](Cc1ccccc1)C(=O)N[C@@H](Cc1ccc(O)cc1)C(=O)N[C@@H](Cc1ccccc1)C(=O)N[C@@H](CCC(=O)O)C(=O)N[C@@H](CC(C)C)C(=O)N[C@@H](CC(=O)O)C(=O)N[C@@H](CCC(=O)O)C(=O)N[C@@H](C)C(=O)N[C@@H](CCC(=O)O)C(=O)N[C@@H](CCCNC(=N)N)C(=O)N[C@H](C(=O)N[C@@H](CC(N)=O)C(=O)N[C@H](C(=O)O)C(C)C)C(C)C)C(C)C	Serine/threonine-protein phosphatase PP1-gamma catalytic subunit (Homo sapiens, UniProt P36873)	ITC		25 °C		ΔH	-34.4 ± 9.6 kcal/mol
CCCn1c(O)nnc1SCC(=O)Nc1cc(Cl)ccc1Cl	PFF0160c E182D	enzyme activity, DCIP colorimetric			relative to: E182D mutant over wild type	IC50 ratio	2.4
CC(=O)N[C@H](C(=O)N1C[C@H](O)C[C@H]1C(=O)NCc1ccc(-c2scnc2C)cc1)C(C)(C)SCCCCCCNC(=O)C[C@@H]1N=C(c2ccc(Cl)cc2)c2c(sc(C)c2C)-n2c(C)nnc21	Bromodomain-containing protein 2, BD1 (BRD2, Homo sapiens, UniProt P25440, K107A/Q101K/V106E)	ITC		25 °C, BD1 KEA mutant, binary		ΔH	-15 ± 1 kcal/mol
COc1ccc(N2C(=O)N(c3c(C)cccc3Cl)Cc3cnc(Nc4ccc(C5CCN(C)CC5)cc4OC)nc32)nc1	MAP3K3 (Homo sapiens, UniProt Q99759)	kinase activity, inhibitor		0.5 µM, MEKK3		inhibition	7.43%

For quick reference, copied from above:
Compound	target	test	system	setting	how to read	measurement	value
Cc1nc2c(c(O)c1Cl)-c1ccc(Oc3cccc(C(F)(F)F)c3)cc1C2=O	PFF0160c E182D	enzyme activity, DCIP colorimetric			relative to: E182D mutant over wild type	IC50 ratio	2.1
O=C(c1ccc(Cl)cc1)N1CCN2C(=O)N(OC(=O)N3CCOc4ccccc43)C(=O)C2C1 (centres unmarked)	SLC1A5 (Homo sapiens, UniProt Q15758)	MS-based ABPP	SW-620 conditioned medium	10 µM, 1 h, 37 °C	relative to: compound over DMSO, lower = more inhibition	mean protein ratio	1.26
CN(C)[C@@H](CCOc1cccc2ccccc12)c1ccccc1	ACHE		biochemical	concentration not given		activity class	inactive
CN(CC(=O)O)C(=N)NP(=O)(O)O	CKMT1A (Homo sapiens, UniProt P12532, E265Q)	substrate, Kinase-Glo luminescence		pH 7.0, reverse reaction, E227Q mutant, added: second substrate in excess		kcat	0.0005 ± 0.0002 s⁻¹
